Results pooled from the literature.
Parts stem from different laboratories: compare values within a part only. Several values in a cell are separate wells, animals, samples, runs or records.

Sample 1 — observed: binding; method: radioligand binding; concentration: 10 µM
Target: D(1A) dopamine receptor (DRD1, Homo sapiens, UniProt P21728)
Chain of UniProt P21728 (whole entry, looked up): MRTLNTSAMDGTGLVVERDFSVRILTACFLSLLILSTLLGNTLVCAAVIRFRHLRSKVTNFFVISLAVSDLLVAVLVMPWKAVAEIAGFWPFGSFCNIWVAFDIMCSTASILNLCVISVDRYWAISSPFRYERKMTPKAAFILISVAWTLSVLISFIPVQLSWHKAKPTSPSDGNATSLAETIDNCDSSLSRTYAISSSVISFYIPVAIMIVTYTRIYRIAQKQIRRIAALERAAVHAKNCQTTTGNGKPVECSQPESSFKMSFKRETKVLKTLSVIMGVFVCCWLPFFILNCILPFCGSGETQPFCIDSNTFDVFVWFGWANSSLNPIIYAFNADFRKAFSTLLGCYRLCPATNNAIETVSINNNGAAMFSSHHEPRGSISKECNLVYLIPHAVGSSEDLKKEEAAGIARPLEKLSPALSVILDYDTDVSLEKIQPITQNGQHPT
The inhibition of CC(=O)c1c(NS(C)(=O)=O)c2cc(-c3ccc(Cl)cc3)c(-c3ccc(Cl)cc3Cl)nc2n(C)c1=O is reported as 14.2%.
COc1cc(-c2cn(C3CCc4ccccc4N(CC(F)(F)F)C3=O)nn2)ccc1-n1ccc(C)n1 (stereo not drawn) has an inhibition of 3.62%.
With CN([C@@H]1CCc2c(CC(=O)O)c3cc(S(C)(=O)=O)ccc3n2C1)S(=O)(=O)c1ccc(F)cc1 the inhibition was -2.96%.
The inhibition of Cc1c(NC(=O)c2cc(C(N)=O)nc3cc(F)ccc23)c(C(F)(F)F)nn1Cc1ccc(C(C)(C)C)cc1 is reported as 3.41%.
CC(=O)N1CCC(c2ccc(C(=O)NC(=N)N)cc2C(F)(F)F)CC1 gave an inhibition of -10.2%.
CNC(=O)c1ccc(Nc2ncc(C(F)(F)F)c(NCc3nccnc3N(C)S(C)(=O)=O)n2)cc1 has an inhibition of -53.3%.
For CS(=O)(=O)NCC[C@H](NC(=O)c1cncc2c1cnn2-c1ccc(F)cc1)c1ccnc(S(C)(=O)=O)c1, the inhibition was -18.2%.
O=C(Nc1cccnn1)N1CCC(=Cc2cccc(Oc3ccc(C(F)(F)F)cn3)c2)CC1 gave an inhibition of -3.23%.

Sample 2 — observed: enzyme activity; action: inhibitor; concentration: 0.5 µM; reference: control
Target: Serine/threonine-protein kinase Nek9 (NEK9, Homo sapiens, UniProt Q8TD19)
Residues (Q8TD19 1-979): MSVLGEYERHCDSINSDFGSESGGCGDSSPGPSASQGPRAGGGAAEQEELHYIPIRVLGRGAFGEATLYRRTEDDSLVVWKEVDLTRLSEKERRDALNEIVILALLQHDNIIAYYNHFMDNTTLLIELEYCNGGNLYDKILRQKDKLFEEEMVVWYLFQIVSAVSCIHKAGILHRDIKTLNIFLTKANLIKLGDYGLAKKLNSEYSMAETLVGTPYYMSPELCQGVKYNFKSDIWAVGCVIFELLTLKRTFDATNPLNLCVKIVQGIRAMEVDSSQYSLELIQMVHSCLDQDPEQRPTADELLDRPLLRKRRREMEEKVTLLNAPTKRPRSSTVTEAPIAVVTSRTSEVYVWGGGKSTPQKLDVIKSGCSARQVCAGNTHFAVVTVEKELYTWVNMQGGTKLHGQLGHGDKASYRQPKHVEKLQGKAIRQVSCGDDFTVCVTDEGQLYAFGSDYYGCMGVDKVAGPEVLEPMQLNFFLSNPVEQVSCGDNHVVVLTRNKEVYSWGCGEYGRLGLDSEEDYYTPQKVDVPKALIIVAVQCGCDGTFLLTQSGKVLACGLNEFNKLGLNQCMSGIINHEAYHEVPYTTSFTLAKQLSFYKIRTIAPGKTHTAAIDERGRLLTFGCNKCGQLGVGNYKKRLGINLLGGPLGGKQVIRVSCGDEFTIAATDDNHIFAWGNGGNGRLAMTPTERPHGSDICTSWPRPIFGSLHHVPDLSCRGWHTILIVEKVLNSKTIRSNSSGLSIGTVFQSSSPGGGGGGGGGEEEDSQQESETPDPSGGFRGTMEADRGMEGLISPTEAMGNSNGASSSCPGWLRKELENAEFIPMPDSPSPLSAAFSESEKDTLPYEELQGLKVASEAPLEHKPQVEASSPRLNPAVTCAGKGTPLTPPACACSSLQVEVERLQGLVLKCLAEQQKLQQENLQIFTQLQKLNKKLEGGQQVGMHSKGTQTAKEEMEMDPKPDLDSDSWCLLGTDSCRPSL
O=C1NC(=O)C(c2cn(CCCO)c3ncccc23)=C1c1cnccn1 has a remaining activity of 93.4%.
COc1cc2ncnc(Nc3ccc(F)c(Cl)c3)c2cc1OCCCN1CCOCC1 has a remaining activity of 99.3%.
The remaining activity of Cn1sc(=O)n(Cc2ccccc2)c1=O is reported as 98.2%.
For Cc1cccc(-c2[nH]c(C(C)(C)C)nc2-c2ccc3c(c2)OCO3)n1, the remaining activity was 95.6%.
For CC(C)[C@H](CO)Nc1nc(Nc2cc(N)cc(Cl)c2)c2ncn(C(C)C)c2n1, the remaining activity was 69.4%.
Nc1ncnc2n[nH]c(Nc3ccc(F)cc3)c12 has a remaining activity of 97.9%.
For N#CC(C#N)=C(N)/C(C#N)=C/c1ccc(O)cc1, the remaining activity was 97.9%.
For O=S(=O)(c1cccc2cnccc12)N1CCCNCC1, the remaining activity was 95.9%.
With NCCNc1ncc(C(N)=O)c(Nc2cccc(C(F)(F)F)c2)n1 the remaining activity was 95.4%.
With O=c1c2ccccc2[nH]c(=S)n1CCN1CCC(=C(c2ccc(F)cc2)c2ccc(F)cc2)CC1 the remaining activity was 97%.
For Cc1nc(-c2ccccc2)c(-c2ccncc2)o1, the remaining activity was 97.2%.
O=C1NC(=O)C(c2cn(CCCn3ccnc3)c3ccccc23)=C1Nc1ccccc1 gave a remaining activity of 89.1%.
Nc1ccc2ncnc(NCCc3ccc(Oc4ccccc4)cc3)c2c1 has a remaining activity of 95.8%.

Sample 3
SMILES: c1ccc(Oc2ccc(Nc3c4c(nc5ccccc35)CCC4)cc2)cc1
For HEK293; resazurin; 0.0332 µM, 10% serum: cytotoxicity read 7% and 10%.
For RAW264.7; resazurin; 16.66 µM, 64 h: cytotoxicity read 15% and 16%.
The cytotoxicity was 3% and 4% (HepG2; resazurin; 1.66 µM, 48 h).
The cytotoxicity was 0% and 15% (PMA-differentiated THP-1 macrophages; 0.2 µM, 64 h).
J774.1; resazurin; 1.66 µM — cytotoxicity: -6% and -2%.

Sample 4 — cell line: mouse MPNST tumor cells; method: high-content nuclear imaging; refers to: cell number; concentration: 10 µM; time: 12 h; setting: mean of 2 replicates; reference: plate mean; direction: higher = more cells
COc1ccc(C2(CNC(=O)c3ccc(NC(=O)c4ccco4)cc3)CCOCC2)cc1 has a nuclei count of -0.146 z-score.
Cc1cc(=O)oc2c(C=O)c(O)ccc12 gave a nuclei count of 0.186 z-score.
With CCOc1ccc2c(c1)C(C)=CC(C)(C)N2 the nuclei count was -1.74 z-score.
With CC1(C)C(N)=Nc2cc(OCCCN3Cc4ccc(OCCc5cn(CC(=O)N6CCC(CCN7CCCC7)CC6)nn5)cc4C3)c(OCC3CC3)cc21 the nuclei count was 1.55 z-score.
For NC(N)=N/N=C/c1ccccc1Cl, the nuclei count was 2.73 z-score.
COc1c(C)c2c(c(O)c1C/C=C(\C)CCC(=O)O)C(=O)OC2 gave a nuclei count of -2.77 z-score.
O=[N+]([O-])c1ccc(CSc2ncnc3c2ncn3[C@@H]2O[C@H](CO)[C@@H](O)[C@H]2O)cc1 has a nuclei count of 1.47 z-score.

Excerpt of the above (sample 4):
For NC(N)=N/N=C/c1ccccc1Cl, the nuclei count was 2.73 z-score.
COc1c(C)c2c(c(O)c1C/C=C(\C)CCC(=O)O)C(=O)OC2 gave a nuclei count of -2.77 z-score.
O=[N+]([O-])c1ccc(CSc2ncnc3c2ncn3[C@@H]2O[C@H](CO)[C@@H](O)[C@H]2O)cc1 has a nuclei count of 1.47 z-score.
